Published values pooled from the literature.
Each line is one published result; not all experiments were run side by side. Several values in a cell are separate wells, animals, samples, runs or records. Numbers after ± are the reported error.

Structure (SMILES) = COc1cc2c(Oc3ccc4[nH]c(C)cc4c3F)ccnc2cc1OCC1(N)CC1; test system = sarcoma, recurrent or refractory, high-risk, paediatric; setting = concentration not given, grade 3, whole group; measurement = mouth ulcer incidence; result = 0%
Structure (SMILES) = O=c1nc(NO)ccn1[C@@H]1O[C@H](CO)[C@@H](O)[C@H]1O; test system = rat maternal blood dialysate; setting = 25 ng/mL, 6 h, 10 °C, low QC concentration, with: molnupiravir; measurement = autosampler stability; result = 97.5 ± 4.62%
Structure (SMILES) = NCCCC[C@@H]1NC(=O)[C@@H](Cc2c[nH]c3ccccc23)NC(=O)[C@H](c2ccccc2)NC(=O)[C@@H]2C[C@@H](OC(=O)NCCN)CN2C(=O)[C@H](Cc2ccccc2)NC(=O)[C@H](Cc2ccc(OCc3ccccc3)cc2)NC1=O; test system = healthy volunteers, female; setting = 600 µg twice daily, 2.0 h, post hoc; measurement = placebo-corrected QTcF change; result = 10.8 ms
Structure (SMILES) = COc1ccnc(C(=O)N[C@H]2COC(=O)[C@H](Cc3ccccc3)[C@@H](OC(=O)C(C)C)[C@H](C)OC2=O)c1OCOC(=O)C(C)C; test = liver toxicity; test system = mouse; setting = 18 month; measurement = NOAEL; result = 5.27 mg/kg/day
Structure (SMILES) = COc1cccc(Oc2ccccc2NC(=O)CNC(=O)c2cccc3ccccc23)c1; test system = esterase-deficient SCID mice, male, blood; setting = oral, 100 mg/kg/day, 14 days, toxicity study; measurement = hematocrit; result = 48.7% and 46.1% and 44.9%
Structure (SMILES) = CC(C)CC(=O)OC[C@H]1O[C@@](C#N)(c2ccc3c(N)ncnn23)[C@H](O)[C@@H]1O; test = plasma protein binding; test system = human plasma; setting = 9 µM, time not given; measurement = recovery; result = 100%
Structure (SMILES) = CC(=O)c1c(C)c2cnc(Nc3ccc(C4CCN(CCS(C)(=O)=O)CC4)cn3)nc2n(C2CCCC2)c1=O; test system = human patients, plasma; setting = oral, 75 mg twice daily, day 21 multiple doses, with: fulvestrant; measurement = clearance; result = 1920 mL/min
Structure (SMILES) = CCC[C@@](N)(CO)CCc1ccc(OCCCCCC(C)C)cc1; test system = hound dogs, male; setting = oral, 20 mg/kg, capsule, fed state, geometric mean; measurement = AUC(0-inf); result = 25.3 µM·h
Structure (SMILES) = COc1cc2c(cc1OC)CN(CCc1ccc(NC(=O)c3cccc4c(=O)c5cccc(OC)c5[nH]c34)cc1)CC2; test system = 0.22 µm nylon filter; measurement = drug loss on filter; result = < 1%
Structure (SMILES) = CC[C@H](C)CCCCC(=O)N[C@@H](CCN)C(=O)N[C@H](C(=O)N[C@@H](CCN)C(=O)N[C@H]1CCNC(=O)[C@H]([C@@H](C)O)NC(=O)[C@H](CCN)NC(=O)[C@H](CCN)NC(=O)[C@H](CC(C)C)NC(=O)[C@@H](CC(C)C)NC(=O)[C@H](CCN)NC1=O)[C@@H](C)O; test = LC-MS/MS; test system = Transwell device; setting = 500 ng/mL, 4 h, 37 °C; measurement = drug retained in HBSS; result = < 20%
Structure (SMILES) = C[C@]1(CO)Cc2ncn(-c3ccc(C#N)c(Cl)c3)c2C(=O)O1; test system = human; setting = all doses, European multiple ascending dose; measurement = drug-related abnormal skin odour; result = 2.2%
Structure (SMILES) = Cc1c(C(=O)O)ccc2c3n(nc12)[C@@H]1[C@H](C3)N(CC2CC2)[C@@]2(C(=O)Nc3cc(Cl)ccc32)[C@H]1c1cccc(Cl)c1F; test system = athymic nude mice, orthotopic brain tumour PDX, tumour; setting = 10 mg/kg single, 24 h; measurement = tumour concentration; result = 263 ± 43 nM
Structure (SMILES) = C=CC(=O)N1CCC(c2ccc(C(N)=O)c(-c3ccc(Oc4ccccc4)cc3)n2)CC1; test = CTCAE 4.03; test system = patients with relapsed/refractory MCL; setting = oral, 150 mg once daily; measurement = incidence of fatal serious TEAEs; result = 0%
Structure (SMILES) = O=C1Nc2cc3[nH]nc(-c4ccncc4)c3cc2CN1Cc1ccccc1; test = CTCAE v4.03; test system = advanced solid tumour patients; setting = intravenous, 7.2 mg/kg, schedules 1/2; measurement = patients with increased GGT; result = 20%
Structure (SMILES) = CC(C)[C@@H]1NC(=O)CNC(=O)[C@H](CC(N)=O)NC(=O)[C@H](CCCNC(=N)N)NC(=O)[C@H](Cc2ccc(O)cc2)NC(=O)[C@H](C(C)C)NC(=O)[C@@H](NC(=O)[C@@H](NC(=O)[C@H](CC(N)=O)NC(=O)[C@H](Cc2c[nH]c3ccccc23)NC(=O)[C@H](C)NC(=O)[C@H](Cc2ccccc2)NC(=O)CN)C(C)C)CSSC[C@@H](C(=O)N[C@@H](Cc2c[nH]cn2)C(=O)N[C@@H](CCCNC(=N)N)C(=O)N[C@@H](CCCNC(=N)N)C(=O)N[C@@H](C)C(=O)N[C@@H](CC(N)=O)C(N)=O)NC(=O)[C@H](C(C)C)NC(=O)[C@H](CCCNC(=N)N)NC1=O; test = circular dichroism, measured: α-Helix; test system = PBS; setting = 80 µM, pH 7.4; measurement = secondary structure content; result = 5.81%
Structure (SMILES) = COc1ncccc1-c1cnn2ccc(N3CCN(C(=O)OC(C)C)CC3)nc12; test system = rat, CCI mechanical hyperalgesia model, plasma; setting = oral, 30 mg/kg, 210 min; measurement = drug concentration; result = 3.7 µM
Structure (SMILES) = Clc1ccc(-c2ccccc2)cc1; test system = rat Sprague-Dawley female, serum; setting = inhalation, 23 µg/rat, 4 h; measurement = serum free thyroxine; result = 49 ± 11 pmol/L
Structure (SMILES) = O=S(=O)(Nc1ccccc1)c1ccc(NC(=S)Nc2ccccc2)cc1; test = measured: ALKP; test system = female mouse, blood; setting = oral, 20 mg/kg daily, 14 days; measurement = serum enzyme activity; result = 212 U/L
Structure (SMILES) = CCN(CCO)CCCC(C)Nc1ccnc2cc(Cl)ccc12 (stereo not drawn); test = measured: Hyperglycemia grade 1; test system = newly diagnosed glioblastoma patients; setting = oral, 400 mg/dose, with radiotherapy and temozolomide; measurement = patients with adverse event; result = 14%
Structure (SMILES) = CC(C)c1nc(N(C)S(C)(=O)=O)nc(-c2ccc(F)cc2)c1/C=C/[C@@H](O)C[C@@H](O)CC(=O)O; test system = healthy human subjects; setting = oral, dose not given, study CL-0537 safety set; measurement = incidence of eye disorders; result = 3.6%
Structure (SMILES) = CC(C)N(CCc1c[nH]c2cccc(OC(=O)CCCC(=O)O)c12)C(C)C.Cl; test system = male beagle dog, plasma; setting = subcutaneous, 1 mg/kg; measurement = AUC(0-t); result = 621 ng·h/mL
Structure (SMILES) = CC(C)(O)c1cc(Nc2cc(Oc3cn(C4CC4)nc3C3CCOCC3)ccn2)ccn1; test = measured: Pyrexia; test system = Japanese patients with advanced cancer; setting = oral, dose not given, any grade; measurement = treatment-emergent adverse events; result = 0%
Structure (SMILES) = C=CC(=O)N1CC[C@H](n2nc(C#Cc3cc(OC)cc(OC)c3)c3c(N)ncnc32)C1; test = measured: abdominal pain; test system = healthy adults; setting = oral, grade ≥3, pooled treatments; measurement = TEAE incidence; result = 0%
Structure (SMILES) = CO[C@H]1C[C@@H]2CC[C@@H](C)[C@@](O)(O2)C(=O)C(=O)N2CCCC[C@H]2C(=O)O[C@H]([C@H](C)C[C@@H]2CC[C@@H](OC(=O)NCCOCCOCCOCCOCCOCCOCCOCCOCCC(=O)N3CCc4cc(Cn5nc(-c6ccc7oc(N)nc7c6)c6c(N)ncnc65)ccc4C3)[C@H](OC)C2)C[C@@H](O)[C@H](C)/C=C(\C)[C@@H](O)[C@@H](OC)C(=O)[C@H](C)C[C@H](C)/C=C/C=C/C=C/1C; test system = patients with advanced solid tumours; setting = intravenous, 16 mg weekly, grade 3 or higher; measurement = abdominal pain incidence; result = 0%
Structure (SMILES) = Cc1c(COC(=O)[C@@H]2[C@H](/C=C(\Cl)C(F)(F)F)C2(C)C)cccc1-c1ccccc1 (racemic); test = measured: CYP2C19; test system = human, age 6 months, recombinant human CYP2C19; setting = 0.1 µM; measurement = enzyme contribution to clearance; result = 46.8%
Structure (SMILES) = C[C@@H]1NC(=O)[C@H](CCCCNC(=O)CO/N=C/C(=O)NCCCC[C@@H]2NC(=O)[C@@H](Cc3ccccc3)NC(=O)[C@H](CC(=O)O)NC(=O)CNC(=O)[C@H](CCCNC(=N)N)NC2=O)NC(=O)CNC(=O)[C@@H]2CCCN2C(=O)[C@H](CCCCNC(=O)CO/N=C/C(=O)NCCCC[C@@H]2NC(=O)[C@@H](Cc3ccccc3)NC(=O)[C@H](CC(=O)O)NC(=O)CNC(=O)[C@H](CCCNC(=N)N)NC2=O)NC(=O)[C@H](CCCCNC(=O)[C@H](CCCCN)NC(=O)[C@H](Cc2ccccc2)NC(=O)CNC(=O)CN2CCCNCCNCCCNCC2)NC(=O)[C@H](CCCCNC(=O)CO/N=C/C(=O)NCCCC[C@@H]2NC(=O)[C@@H](Cc3ccccc3)NC(=O)[C@H](CC(=O)O)NC(=O)CNC(=O)[C@H](CCCNC(=N)N)NC2=O)NC(=O)CNC(=O)[C@@H]2CCCN2C(=O)[C@H](CCCCNC(=O)CO/N=C/C(=O)NCCCC[C@@H]2NC(=O)[C@@H](Cc3ccccc3)NC(=O)[C@H](CC(=O)O)NC(=O)CNC(=O)[C@H](CCCNC(=N)N)NC2=O)NC1=O [copper-64 labelled]; test system = normal mice, stomach; setting = intravenous, 0.74 MBq, 24 h post-injection; measurement = tissue uptake; result = 0.7 ± 0.19 %ID/g
Structure (SMILES) = C[C@@H](NC(=O)N1C(=O)[C@H](Cc2ccnc(N)c2)[C@H]1C(=O)O)C1CCCCC1; test system = healthy adult Chinese volunteers; setting = continuous intravenous infusion, 1.0 mg/kg/h, 5-day infusion, CTCAE 5.0 grading; measurement = drug-related abnormal liver function; result = 0%

Repeated from above:
Structure (SMILES) = C[C@]1(CO)Cc2ncn(-c3ccc(C#N)c(Cl)c3)c2C(=O)O1; test system = human; setting = all doses, European multiple ascending dose; measurement = drug-related abnormal skin odour; result = 2.2%
Structure (SMILES) = NCCCC[C@@H]1NC(=O)[C@@H](Cc2c[nH]c3ccccc23)NC(=O)[C@H](c2ccccc2)NC(=O)[C@@H]2C[C@@H](OC(=O)NCCN)CN2C(=O)[C@H](Cc2ccccc2)NC(=O)[C@H](Cc2ccc(OCc3ccccc3)cc2)NC1=O; test system = healthy volunteers, female; setting = 600 µg twice daily, 2.0 h, post hoc; measurement = placebo-corrected QTcF change; result = 10.8 ms
